Assay results pooled from the literature.
Each numbered part is a random draw from the data of one study; scales do not carry over between parts.

Series 1 — technique: universal PBM; molecule type: double-stranded DNA, one strand shown; matrix: in vitro; tested at: not given; direction: higher = stronger binding
Target: Sal-like protein 4, full length isoform B (SALL4, Homo sapiens, UniProt Q9UJQ4-2, residues 1-616)
Notes: 8-mer, flanks averaged, mean of replicates
`ACCAAACG` gave an E-score of -0.115.
`CAACTATC` has an E-score of -0.0736.
`CAGAGCAC` has an E-score of -0.312.
`CAATGACG` gave an E-score of -0.0249.
For `ATCTGGAC`, the E-score was -0.111.
`ATAGGCTC` has an E-score of 0.00122.
With `ATATCTAG` the E-score was 0.257.
The E-score of `ATTCAAGG` is reported as 0.0618.
`CAGGCCAA` gave an E-score of -0.263.
The E-score of `GATAACCA` is reported as 0.114.
With `AGAAATAA` the E-score was 0.33.
With `GGCAAGCC` the E-score was -0.294.
For `ATCGGGCG`, the E-score was -0.26.
For `CTTAAATA`, the E-score was 0.177.
The E-score of `ATACGCGA` is reported as 0.0741.
`GGAGTCAA` gave an E-score of -0.0883.
`GGTCTAAA` has an E-score of 0.0478.
`AAGATAGT` has an E-score of 0.132.
`ACCGTCAT` has an E-score of -0.0289.
`GAAAAGAA` gave an E-score of 0.0108.
The E-score of `CTAGTCAG` is reported as -0.102.
`GCGGTAAC` gave an E-score of -0.0228.
`CTAGCGTC` gave an E-score of -0.104.
`CTAATTTA` gave an E-score of 0.288.
`CACATTTC` gave an E-score of 0.118.

Series 2 — technique: RNA Bind-n-Seq; molecule type: RNA; matrix: in vitro; tested at: 365 nM; relative to: no-protein control; direction: higher = stronger binding
Target: RNA binding protein fox-1 homolog 2, RRM domain, GST-SBP tag (RBFOX2, Homo sapiens, UniProt O43251-10, residues 100-194)
Notes: natural RNA segment, single round, ends assumed
Constant ends, left off below: GGGAGUUCUACAGUCCGACGAUC … UGGAAUUCUCGGGUGCCAA
Target sequence (chain): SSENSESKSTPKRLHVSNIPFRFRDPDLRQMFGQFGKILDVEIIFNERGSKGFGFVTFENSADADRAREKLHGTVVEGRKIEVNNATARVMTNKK
Under “RBNS enrichment (R)”, `AUAAAAACACUUUCAUAGCCUCAUUCAUUCACUUAGAAGUGGUAAUAAUUUUUCCCUAAUGAUACCACUUUUCUUUUCCCCCUGUACCUAUGGGACUUCCAGAAAGAAGU` is recorded as 0.787.
`CCUCUUGCAAAGUAGCCUCUUUCAUCCCAUACUCAAAAUACCCAGUUUAGCAAGCAACUGAGAUUUAAGUCUCUCUGGCCCUAAGAGGUUUUUCCUCUUUGCUCCCUCCA` — result for “RBNS enrichment (R)”: 5.09.
For `GUGUGACUUUCUAGAGAAGCCAGGACACCCCUGAGCCUUUCCUGGGAACUCCUAAGGAAGUCACAGGUUCACACCGUGGGGAUUUUCAGGAUAGCAUGGAGACCAGAGAA`, “RBNS enrichment (R)” read 1.99.
`AGUCAUAAGGAAAGAAUUACGUGUACUUCAUAUCCCUAUAAAUUGUAAAUGCUAAAAAUGUUAAAGAACUCGAAGUAUUUCUCUAAAAGGCUGUCAAGAGAAUCUAGGUC` — result for “RBNS enrichment (R)”: 1.07.
`CUUUGUCUCAUCCUUCAUUCUGAAUAAGAUGGCAGUGUUCUCCUCUGGGGCCUGAUCCACCUCUACACCAGCCCAGGAAGCCCCAUCUGUGCCUGCCCUCAGGUGGUCCA`: “RBNS enrichment (R)” 0.347.
`CAAAGUACAGAUUUUUUACAUUUUAGAGGAAGAGCACCUUGUAUAGUAAGUCUAAGUCAAGCAAGACUUUGUGAAUUUGUGACAAGUUUGCACUUACAAAAUCAUGUAAA` — result for “RBNS enrichment (R)”: 0.753.
Under “RBNS enrichment (R)”, `CAUGAUCAUUUGCUCCUGCUCUAAUUUUAAUGUGCAUACAAAAAAUAUACCAAAAAUGUUAUUGUAAUUUUAAUGAGCAUGUAAAGAGUGUAUCAAAAAUUGAUGGGAUA` is recorded as 0.444.
For `AGAGAGGAGCGCGCUUCCUUUCCUCCCCGCUGCCGCCCACCCUGGGGAGAGACUUUUGCGGGGAGGGAAGGCGGAGCUGAGGACAGCCAGCUCCGCCCUCCCAAGGCUGU`, “RBNS enrichment (R)” read 0.38.
`UGUAAAACUCAGAAACGCAGUUGGAAAGUCCUUAUUCAUUUAGUAAGCGAAUAUAUUAUAAUAUGUAUAGAGCGCCUUUUGUGUAAGUCACUGGUCAGAAUCCUCACUGA`: “RBNS enrichment (R)” 0.249.
Under “RBNS enrichment (R)”, `AAGGCCUUCACCUACGUGAAGACCUCCUGGUAGGAUCUGUCCAUGGGAUGGAGAACCACUCUGUCCAGAUCUGGGGUUGGGUCAUGACACCAGCUACCAAUUUUAGAAUA` is recorded as 0.205.
For `CAAAUGUAUUAUUUUGGUGACAAAAAUGAAGGAGCUUUGUAAAUUUUUUUUAAAAUUAUGAAUCAUAUCAAGUAGUUGUUUACAUUUCUUGAAAAAAUAGGAACUCGGGC`, “RBNS enrichment (R)” read 0.837.
`GACCUGUGCUGUCACUGGGCAUAGGACAGCGGCAUCACGGUUGCAUUCCCAUUGGACUCAUGCACCUCCCGGAUGGUUUUUGUUUUUUUCGGGGGUUCUUUGGGGUUUGU` — result for “RBNS enrichment (R)”: 2.41.

Series 3 — technique: RNAcompete; molecule type: RNA; matrix: in vitro; tested at: 20 nM; notes: 7-mer, probes averaged, single round; relative to: mean of 7-mers; direction: higher = stronger binding
Target: PABPC1L2, full length, GST fusion (mouse, UniProt A0ABA7IW68)
Target sequence (chain): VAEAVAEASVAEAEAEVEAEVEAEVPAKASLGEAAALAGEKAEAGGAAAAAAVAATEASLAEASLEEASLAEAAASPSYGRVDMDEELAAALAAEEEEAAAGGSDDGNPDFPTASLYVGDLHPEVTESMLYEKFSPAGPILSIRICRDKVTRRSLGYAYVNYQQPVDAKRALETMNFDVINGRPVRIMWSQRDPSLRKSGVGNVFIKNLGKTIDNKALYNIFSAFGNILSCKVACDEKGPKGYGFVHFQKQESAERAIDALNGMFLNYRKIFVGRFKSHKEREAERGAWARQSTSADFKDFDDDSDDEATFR
`CCUCGUC` has a 7-mer Z-score of -0.483.
`GCUGAGC` gave a 7-mer Z-score of 0.0732.
The 7-mer Z-score of `UCCAUGU` is reported as -0.233.
`UUAGUGG` gave a 7-mer Z-score of 0.0152.
With `GUACGUG` the 7-mer Z-score was -0.144.
`CACCCUC` gave a 7-mer Z-score of -0.324.
The 7-mer Z-score of `ACUAGAA` is reported as 0.258.
`UCUCUCU` has a 7-mer Z-score of -0.335.
For `GCAAGGU`, the 7-mer Z-score was -0.0428.
With `UAAUGAG` the 7-mer Z-score was -0.0663.
With `CGCGUUG` the 7-mer Z-score was -0.113.
The 7-mer Z-score of `ACGAUGA` is reported as -0.0409.
For `ACGUCAA`, the 7-mer Z-score was -0.161.
With `GUGAGUG` the 7-mer Z-score was -0.19.
The 7-mer Z-score of `CACUCUA` is reported as -0.0881.
With `CCAUCUC` the 7-mer Z-score was -0.447.
`GAUUAUU` gave a 7-mer Z-score of -0.199.
For `GAGCACC`, the 7-mer Z-score was -0.168.
`GGAAGGG` has a 7-mer Z-score of 0.274.
With `CACAAAU` the 7-mer Z-score was 0.644.
With `ACGGAGC` the 7-mer Z-score was 0.0297.
For `GACGGAA`, the 7-mer Z-score was 0.131.
`GGGAACU` gave a 7-mer Z-score of 0.0551.
`CAACGUA` gave a 7-mer Z-score of 0.0334.

Series 4 — technique: RNA Bind-n-Seq; molecule type: RNA; matrix: in vitro; tested at: not given; notes: RNA with constant flanks, ends assumed; relative to: input RNA pool; direction: higher = stronger binding
Target: RING finger protein unkempt homolog, zinc fingers 1-6, GST-SBP tag (UNK, Homo sapiens, UniProt Q9C0B0, residues 30-357)
Constant ends, left off below: GGGAGUUCUACAGUCCGACGAUC … CAACAGAGGAUUGAGCAUCA
Target sequence (chain): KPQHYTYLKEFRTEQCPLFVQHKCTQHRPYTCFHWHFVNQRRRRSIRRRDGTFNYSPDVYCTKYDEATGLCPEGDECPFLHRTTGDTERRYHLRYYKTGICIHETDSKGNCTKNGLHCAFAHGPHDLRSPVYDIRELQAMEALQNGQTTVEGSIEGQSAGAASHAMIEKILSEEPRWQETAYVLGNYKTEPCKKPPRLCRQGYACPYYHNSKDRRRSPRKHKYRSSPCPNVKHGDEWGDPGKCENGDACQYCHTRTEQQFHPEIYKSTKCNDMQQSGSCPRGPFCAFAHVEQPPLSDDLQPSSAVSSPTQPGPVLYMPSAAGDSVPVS
`CCCACCACAAAAAUUCAGAUCAGGUUGGCAGAUGGAAGUCGUCUCGUACAGAGAUUCAACCGCACACACCGGAUUCUGGAUGUACGAGACUUUAUAGUACGGUCACGUCCUGAAUUUGCG` has a bound/input enrichment of 0.174 ratio.
`AUUGCUAUGGGAUUUCCUGCAGAAAGACUUGAAGGUGUAUACAGGAACAAUAUUGAUGAUGCCGUAAGGUUUUUGGAUUCAAAGCAUAAAAACCAUUACAAGAUAUACAAUCUAUGUGCU` gave a bound/input enrichment of 0.371 ratio.
The bound/input enrichment of `UAGCAGAGGUAAGAAUAUGUAUUCAUAUAAUCUGCCUACUUUUGAGUUCUCAUAUUAACAUUCCGAUAACAUAUGAAGUAUGGCCCCCUUGGAUCCUUGUUUUUAAGUUACUUUCGAUGU` is reported as 0.298 ratio.
For `GACCCAUAUUUCCACGAUCGUGUUGCUUCCUUCUAUGAAGGUCAGGUUGCAAUAUGGGAUCUCCGAAAAUUUGAGAAGCCAGUUUUGACAUUGACUGAGCAACCAAAACCCUUAACAAAA`, the bound/input enrichment was 0.141 ratio.
`UACUUAUGCCAAUAUUGUGAAUAUUCAACAGGACAAAUUGACGAUCUUAAAAUUCAUCCCGAUUUCAAGCAUUCAGCUGACUUGCCUCAUAAAUGUAGUGAGUGCUUGAUGAGGUUUGGG` has a bound/input enrichment of 0.295 ratio.
The bound/input enrichment of `CUGUAAUUUCAAUUUUUUUUUUUUGCUGAAAUACAUUAUAUUGUACGUUUGAGAUAAUUCCCGUACAAAGUAUAAUAAAACUAGAUGUAUAAUAAACCCUUUAAAUCAUUGGUAAGUGUA` is reported as 2.52 ratio.
For `GUUACCUGUGUUGCUGCCUCUCCCCACAAAGACUCUGUGUUUCUUUCAUGUAGUGAGGACAGCCGAAUUUUGCUCUGGGAUACCCGCUGUCCCAAGCCGGCAUCACAGAUGGCCUGCAAU`, the bound/input enrichment was 0.344 ratio.
The bound/input enrichment of `GUGUGGACAGCUGACAAAUUUAAUCCUUUGUAAUACUUUCUUUGUGACAUUUCUCUUCCCCUCCGAAACAUUGCACAUUUUAACUCUAGGCAUGGCCUCUUCUGGUGUUGACUGGACUUG` is reported as 0.385 ratio.
`AAAACAUGUAAAUCCAGUCUACUCUAUUGUCUUGUUUUGAUUAUACCAUCAGACACAUUGCCGUUGCCCGACGUAGUAUGAAGGCACAGGUGAUGGGGCAGUCCUAAAUUUCUGACUCUU` gave a bound/input enrichment of 0.107 ratio.
`CUGCAGUCUUUGACUUUUCCUUUCUUUUUUGCCACCCUUUCAGGAACCCUGUAUGGUUUUCCGUUUAAAUUAAAGGAGUCGUUAUCGUGGUGGGAAUAUGAAAUAAAGUAGAAGAAAAGG` has a bound/input enrichment of 0.186 ratio.
With `AAUUCCAGUGACAGUGAUUCAUCUUGUGGUUGGACUGUCAUCAGUCAUGAGGGGUCAGAUACCGAAAUGUUGAAUUCUGUGACCCCCACUGACAGCUGUGAGCCCGCCCCAGAAUGUUCA` the bound/input enrichment was 0.052 ratio.
